Published values of several laboratories.
Each numbered part is a random draw from the data of one study; scales do not carry over between parts.

Set 1 — target: human cyclin A2; technique: competitive growth deep sequencing; molecule type: peptide; organism: Saccharomyces cerevisiae; strain: cyclin A2-Cln2 fusion strain; notes: peptide tiling library; reading: direction not given
Molecule	enrichment score
SFLIEYEFLIPPSLKP	0.638
KSKHEEEEWTDDDLVE	1.19
GQLVIPLDELTLDTSF	1.79
SPREGHMMDALYAQVK	0.405
PLRKAKRARLCSSSSS	1.82
RVSGLLSWTLSRVLWL	-0.381
RDLFDCDFGDLTPLDF	1.43
KRRLDLETDHQY	2.79
AGSAKRRLFGEDPPKE	2.82
TRRRLFVENDSP	3.23
VLLKRLQDVVSERANH	-1.26
ALLRRLQDVANDRGSH	-0.721
ISRLFPPRTPGWHQLQ	-1.08

Set 2 — technique: protein-binding microarray; molecule type: double-stranded DNA, one strand shown; matrix: in vitro; concentration: 250 nM; notes: 60-bp whole probe; together with: salmon DNA 0.4 mg/ml; relative to: random background probes; reading: higher = stronger binding; shared flanks, not repeated: GCCTAGCAC … GTCTTGATTCGCTTGACGCTGCTG
Target: Interferon regulatory factor 5, full length, phosphomimetic (IRF5, Homo sapiens, UniProt Q13568-2, residues 1-514, K96S/S451D/S453D/S456D/S462D)
Sequence	log fluorescence [z-score]
TTAGGTTTCGGTATCGGATAGTGCTAG	10.7
TTAGGTCTCGGGATCGGTTAGTGCTAG	0.108
TTAAGTTTCCTTTCCCTTTAGTGCTAG	2.76
TTAGGTTTCGTACTGCTTTAGTGCTAG	4.05
GATGGACTGGGACTGGGGACGTGCTAG	-0.373
TATCCTATCAGTTTAATATCGTGCTAG	2.72
TTAGGTATTCTACTGCTTTAGTGCTAG	0.103
GACGGTTTCTGGTTTCGGGACGTGCTA	5.09
GACGGTTTCGGGTTTCGGGCCGTGCTA	7.31
GACGGTCTCGGACTGGTGACGTGCTAG	-0.463
GACGGCTTCCTTTTCCTGACGTGCTAG	-0.162
GACGTTCTCCTTCTCCTGACGTGCTAG	0.13
TTAGGTTTGCTTCTCCTTTAGTGCTAG	-0.00121
GACGGTTCCCTTGTCCTGACGTGCTAG	-0.112
CTTTGACTCTTTCTGTCAGTGTGCTAG	2.63
TCAAATTTTCAATTCCTACTGTGCTAG	1.39
TTAGGACTGGACTATCCGTTAGTGCTA	-0.0682
TTAGGTATCAGACTGGATTAGTGCTAG	0.169
TTAGATATCTGGTATCGATTAGTGCTA	6.15
TTAGGGTTCCTTCTCCTTTAGTGCTAG	-0.17
GACGGACTGAGGTTTCGGGACGTGCTA	1.5
GACGATTTAAGTTCCGAGACGTGCTAG	0.116
GTCGGTCTCGGTCTCGGGACGTGCTAG	0.739
TTAGGACTGGGGCTCGGTTAGTGCTAG	-0.452
CTACTTCTGTTTTTGCTTTCGTGCTAG	3.16

Set 3 — technique: RNA Bind-n-Seq; molecule type: RNA; matrix: in vitro; concentration: 365 nM; relative to: no-protein control; reading: higher = stronger binding
Target: RNA binding protein fox-1 homolog 2, RRM domain, GST-SBP tag (RBFOX2, Homo sapiens, UniProt O43251-10, residues 100-194)
Notes: natural RNA segment, single round, ends assumed
Shared flanks, not repeated: GGGAGUUCUACAGUCCGACGAUC … UGGAAUUCUCGGGUGCCAA
Target sequence (chain): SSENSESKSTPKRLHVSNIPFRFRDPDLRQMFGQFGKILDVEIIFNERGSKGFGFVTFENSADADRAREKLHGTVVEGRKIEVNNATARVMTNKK
Sequence	RBNS enrichment (R)
AGCUGAGUGAGAACAUGAACUUUUUGCACCAUGUACCCAUGGCUUACACUACUUAGAAAAUCACCUUUUCAGAUAAAACAGUUUAUGAGUUCAUAGAGAACACCAGCACU	0.368
CUUGAGUGCCACCCCCAGGGAAGAACAUAAAGGGUUGCACAAUGCCACCCAUCCACUCCUUGCCAAGUGUUACCCAGAUGGUGGAGGAUGUGAAGGGAUUGCACCAAGCC	0.389
GUAUUGAAUUAUCUGUGGAAUGCAUUGUGAACUGUAAAGCAAAGUAUCAAUAAAGCUUAUAGACUUACCUUUGUGUUUAGUGUUUUAGUUUCAUGAAUGCACAGCAAAAA	0.731
AGCGAAUGGUGAAAGCUACUGAAAUAAGCUGUGAUUGUACUGUACAUAAAACAUAUGAGGAAUCUGCAAGGAACACUACAGUUGUGUAAAGUUGUUCUGUUAACUUUUGU	0.445
GUAUCUUACUGUUUGGUUAAGGCACUAAUUUUACUUACCUAUUAGAUUUUGAAAGUAUCUGAGAUAUACAAAUCUCCCUGUAGGAAAUGUGAAAGAAAAGCACAACAAAA	0.356
UUCAGCUCCCUGAGAAGUAGCUCUUCCUCCAGGGCAUGGAAGGAUGGGAGGCCAGCAGGACCCUGCCCCAUGUGUCAGCUACCACAGAUUAAAGCUGUUACCGCACACGG	0.342
AAAGGAAAGGACCCUGAAGCCAAUAUCUGAUUCUCGGCUGCACCUUCUCUUGGCCACCCUGGCCCUGACCGGGCCAGCACGUGCACACUGGCCUCUUUUCAUUUCACUAG	0.646
ACCCAGGAUGGAACACGAAACCACACGUGCCGUGACCUUUAGGUUUAUGAGUAGACAGUGUUAAUUUGAUUUUCUACAGGAAUUAUGUAACUUAUUCUUUAGGUUUAAAA	0.37
GUUGAAAGUCAAAUGUGGCUGUUGAGUCCACAGACCCCCAUCCUAAUUCCUGCACCUGGAGGAGUUCCCCAACCCCCGUGUUUGCGGGAGGAAGCAUUUGUACAGUGGCU	0.55
AAUCCCUGCAGCCUAGCCUCCCCACCCUCCAGAACCUGGAAUAGCUGAGCAGCUCAGGCUGUGGCCCUUACCUCCAGUCCUCACCUCAACCUGCGCUGCAGCCUCCCUCC	0.336
GGAAAACCAAAAAGAAGAAAAGCAUUAAAAGGAUUUAGCACUGGAGACUGUACAGCCACCCUCAGCUGCCAUCUUUGUCUUCCUGCUGCCACCUCAGGCAGCUGUUACUC	0.818
AGAAGGACUCCUGAAGUUACUGCUGCUCAGAAAAACAGUUCCUUUAAUGUGGAAGAGCCAUUUCAUAGGUCAUAGGUGGUAUGGUAUAUUUCUUCAGAGUCAACCUUGGC	0.585

Set 4 — technique: RNA Bind-n-Seq; molecule type: RNA; matrix: in vitro; concentration: 200 nM; notes: whole 134-nt RNA, ends assumed; together with: 150 mM LiCl; relative to: input library; reading: higher = stronger binding; all molecules: 7-deaza-guanosine replaces G
Target: Ras GTPase-activating protein-binding protein 1, full length (G3BP1, Homo sapiens, UniProt Q13283)
Sequence of UniProt Q13283 (whole entry, looked up): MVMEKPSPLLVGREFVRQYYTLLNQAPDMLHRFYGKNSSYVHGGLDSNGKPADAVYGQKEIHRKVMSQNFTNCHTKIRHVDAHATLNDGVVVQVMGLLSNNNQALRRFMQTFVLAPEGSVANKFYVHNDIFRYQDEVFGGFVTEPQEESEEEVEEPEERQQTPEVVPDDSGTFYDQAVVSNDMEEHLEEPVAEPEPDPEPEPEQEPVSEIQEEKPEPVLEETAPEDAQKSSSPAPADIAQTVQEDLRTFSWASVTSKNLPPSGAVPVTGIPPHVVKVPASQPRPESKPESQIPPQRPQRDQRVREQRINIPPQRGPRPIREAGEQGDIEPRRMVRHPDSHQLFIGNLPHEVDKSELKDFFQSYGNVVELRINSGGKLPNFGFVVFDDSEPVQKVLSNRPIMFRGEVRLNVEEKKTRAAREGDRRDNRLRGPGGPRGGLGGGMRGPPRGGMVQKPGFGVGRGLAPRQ
Shared flanks, not repeated: GGGAGUUCUACAGUCCGACGAUC … UGGAAUUCUCGGGUGUCAAGG
Sequence	log2 enrichment
AGUCCUGUGCUACACAUCGUAUGUACCGAAUCAAACCCAAAUUUUUAAAUUUUUAAAAAAGUAUUAUGUUACGCCGUUCGGAUCUGCACU	-0.864
UCCUCAAGUCCUGUGCUACACAUCGUAUGUACCGAAUCGGUGGUGGGGUGGGAAAGUAUUAUGUUACGCCGUUCGGAUCUGCACUUCCAG	0.994
GCAGGAAGUAAAAACAAAUGGAAAUGCUUCGGAUAGUGGCAGGGGUGGGGGUUGCUAAGGAAAGGGUGGGAUGGGAGUGGGUAAAGAAAA	-0.211
AGUCCUGUGCUACACAUCGUAUGUACCGAAUCAAACCCCCCCAAACCCAAAUUUAAAAAAGUAUUAUGUUACGCCGUUCGGAUCUGCACU	0.942
AGUCCUGUGCUACACAUCGUAUGUACCGAAUCGGGAAAAGGGGAAAAGGGGAAAAGGAAAGUAUUAUGUUACGCCGUUCGGAUCUGCACU	-0.422
UUGCUAAUCUAUAAAUUUUUUUUAUAUGAAAUAGCUCAUAGUCGGAAGCCGGCACCCUCAAAUGAGCCCGAAUAUCUAUGUAAAUGGAUG	-2.95
UGCGGGACAAAGAAGUGGCCAAUCGAUACUUUACCACUGUCUGUGUGAGAUUACUGCUUGAGAGCAAAGAAAAGAAGAUCAGGGAAUUCA	-0.295
ACCAUACUUGACAACUUCUGAUUGAAUGCCCAUGCCCAAUGCCAACAUCCACGAACGCCAAUGACCAAUGCAGUACAAUGCCAGUGUUUC	0.606
CUGUGCUACACAUCGUAUGUACCGAAUCGGGGCCCCCCGGGGCCCCCCGGGGCCCCCCGGGGAAAGUAUUAUGUUACGCCGUUCGGAUCU	-1.59
CCUCAAGUCCUGUGCUACACAUCGUAUGUACCGAAUCGGAAAGGAGGAAAGGAAAGUAUUAUGUUACGCCGUUCGGAUCUGCACUUCCAG	-0.169
AAGUCCUGUGCUACACAUCGUAUGUACCGAAUCGGGAAAAGGGAAAAGGAAAAGGGGAAAGUAUUAUGUUACGCCGUUCGGAUCUGCACU	0.467

For quick reference, copied from above (set 1):
Molecule	enrichment score
KSKHEEEEWTDDDLVE	1.19
VLLKRLQDVVSERANH	-1.26
GQLVIPLDELTLDTSF	1.79
SPREGHMMDALYAQVK	0.405
